Results collected from several papers.
Protocols differ between the studies behind these lines. Values joined by “and” are separate records of one study, mostly repeats; a detail may differ.
JAK2 JH1: Tyrosine-protein kinase JAK2, JH1 (JAK2, Homo sapiens, UniProt O60674)
JAK2: Tyrosine-protein kinase JAK2 (JAK2, Homo sapiens, UniProt O60674)

SMILES = CN1CCN(Cc2ccc(-c3ccc(CO[C@H]4CCC[C@@H]4NC(=O)c4cc(-c5cnn(C)c5)cnc4N)cc3)cc2)CC1; target = JAK2 JH1; test = enzyme activity, inhibitor; conditions = 0.1 µM; inhibition = 4%
SMILES = CN1CC[C@@H](COc2cnc(C#N)cc2-c2ccn3nc(NC(=O)C4CC4)cc3c2)C1; target = JAK2; test = enzyme activity, inhibitor; conditions = 1 µM; inhibition = 1%
SMILES = Cc1cnc2nc1Nc1cccc(c1)COC/C=C/COCc1cc(ccc1OCCN1CCOCC1)N2; target = JAK2; test = inhibitor, Z'-LYTE kinase; conditions = 0.2441 nM; inhibition = 23.1% and 22.2% and 28.8%
SMILES = CCn1cc(C(=O)O)c(=O)c2c(N)c(F)c(NC3CCCCC3)cc21; target = JAK2; test = kinase activity; conditions = 0.1 µM, added: ATP at Km; inhibition = 9.2%
SMILES = Cc1cnc2nc1Nc1cccc(c1)COCCCCOCc1cc(ccc1OCCN1CCCC1)N2; target = JAK2; test = inhibitor, Z'-LYTE kinase; conditions = 10000 nM; inhibition = 99.1% and 100% and 93.3%
SMILES = CS(=O)(=O)Nc1cccc(-c2csc3cnc(Nc4ccc(N5CCN(CCCCCOc6cccc7c6C(=O)N(C6CCC(=O)NC6=O)C7=O)CC5)cc4)nc23)c1 (centres unmarked); target = Tyrosine-protein kinase JAK2, JH2 domain (JAK2, Homo sapiens, UniProt O60674); test = probe labelling, inhibitor, KiNativ chemoproteomics; test system = MOLT-4; conditions = 1 µM; inhibition = 26.2%
SMILES = Cc1[nH]nc2c1N=C(c1ccccc1Cl)c1cnc(N3CCOCC3)cc1N2; target = JAK2; test = enzyme activity, inhibitor; conditions = 0.5 µM; inhibition = 98.6%
SMILES = Cc1cnc2nc1Nc1cccc(c1)COCc1cc(ccc1OCCN1CCOCC1)N2; target = JAK2; test = inhibitor, Z'-LYTE kinase; conditions = 4.115 nM; inhibition = 16.8% and 14.2% and 13.1%
SMILES = Cc1nc2c(F)cc(-c3nc(Nc4ccc(CNC(=O)CCCCCCC(=O)NO)cc4)ncc3F)cc2n1C(C)C; target = JAK2; test = enzyme activity, inhibitor; conditions = 1 µM; inhibition = 100%
SMILES = Cc1cccc(O[C@H]2CCC[C@@H](C(C)CNCc3ccncc3)C2)c1 (relative stereo); target = JAK2; test = kinase activity, kinome panel screening; conditions = 1 µM; inhibition = 2%
SMILES = C=CC(=O)Nc1cccc(-c2cnc3[nH]cc(C(=O)NC(C)(C)C)c3n2)c1; target = JAK2; test = kinase activity; conditions = 0.1 µM; inhibition = 97%
SMILES = Cc1cnc2nc1Nc1cc(F)cc(c1)COC/C=C/COCc1cc(ccc1OCCN1CCCC1)N2; target = JAK2; test = inhibitor, Z'-LYTE kinase; conditions = 1.372 nM; inhibition = 20.9% and 16.7% and 17.7%
SMILES = NC(=O)C[C@H]1CCc2sc3ncnc(O[C@H]4CC[C@H](N5CCOCC5)CC4)c3c21; target = JAK2; test = enzyme activity, inhibitor; conditions = 10 µM; inhibition = 4%
SMILES = C=CC(=O)N1Cc2nc(-c3cc(-c4cc(Cl)cnc4Cl)c(F)cc3F)n(-c3ccncn3)c2C1; target = JAK2 JH1; test = cell-free assay, inhibitor; conditions = 1 µM; inhibition = -2.9%

For quick reference, copied from above:
SMILES = CN1CC[C@@H](COc2cnc(C#N)cc2-c2ccn3nc(NC(=O)C4CC4)cc3c2)C1; target = JAK2; test = enzyme activity, inhibitor; conditions = 1 µM; inhibition = 1%
